Published values of several laboratories.
A part holds a random share of what one study measured. Changes are numbered by the printed parent chain.

Sample 1
Target: RNA binding protein fox-1 homolog 2, RRM domain, GST-SBP tag (RBFOX2, Homo sapiens, UniProt O43251-10, residues 100-194)
Technique: RNA Bind-n-Seq
Form: RNA
Sample: in vitro
Tested at: 365 nM
Setting: natural RNA segment, single round, ends assumed
Relative to: no-protein control
Direction: higher = stronger binding
All sequences stand within: GGGAGUUCUACAGUCCGACGAUC … UGGAAUUCUCGGGUGCCAA
Residues (chain): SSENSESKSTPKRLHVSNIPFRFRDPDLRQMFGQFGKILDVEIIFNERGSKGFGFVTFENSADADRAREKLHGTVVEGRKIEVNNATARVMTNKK
`GAAGGCUAUGCCAGGGAAUCUGGCUCAAAGCCUAACACAGAAGCAGCUUCAUCCCAGUGACGAUGCUGGACGUACAGAUGGUGAUGGCAAAGGUGUAGAACACAUUUUUU`: “RBNS enrichment (R)” 0.274.
`GCAAUAGGACAAUUUCCAAUUUAAUUUAGAUCCUCUAAUCUUUCUACAUGGACAAGCUGUUUUCUUUUCUAGGUUACUGAUAACCCCUACAAUUUUCGACUUAACUUCAA` — result for “RBNS enrichment (R)”: 0.495.
`CCUUUGGGAGCAUGUGUGGCUAGGGUGUGGCAGCCUUUGUCUGACAUGCAGUAUAGUAGGUCCCUGACCUUUACUUGCCUGAAAUCAGCAGUUAUCAAUAAUUCCCACCC`: “RBNS enrichment (R)” 0.311.
For `AUGGAACUGUGAGUUCAUUAAACCUCUUUUUCUUCAUAAAUUACCCAGUCUCGGGUAUGUCUUUAUCAGCAGUGUGAAAACAGACUAAUACACCACUCCUCUACCUUCUU`, “RBNS enrichment (R)” read 0.448.
For `AGGGGAUUUUUAAAUGUCAUAAAUUUGAAGAGUGGUGGGUUGCAUUUUCUUCAUGGGUUUAUGUUUUCGUUUCAUUUUGGACUCAAUUUCACAUCACCAAAUUCCUCAUU`, “RBNS enrichment (R)” read 0.955.
`GAGGUCUCUGAAGAGCAGGCUCAGGGAAAAGAUGAGUUUUCAGAGCUGAUGUGAUAGUCAGCUUCUCUGGAGUCAACAGGGUGAAUCCUUCCCAAGUCCAGCCAUGCCCA`: “RBNS enrichment (R)” 0.415.
Under “RBNS enrichment (R)”, `CAGGCCAGGCCUGGGUCCUGCCCUCCCAUGGGGUGACUCAUGACCCCUCCAGCCAGGACUCUCCUACAUGUGGCCCCCAUAGGCCUCUGUGGCUGCAAGGCGGUCAGUUG` is recorded as 0.239.
Under “RBNS enrichment (R)”, `AACAUUCAUAUGGCCAUUAAUUUUAACAUUAAAUCGUAGGUAGGGCAAUGUAGUAAAAUGAAAGAGAAUUAAGAAAGGUUUUGAAUUCUUAUAACAUAUCCAGCCAUUUC` is recorded as 0.847.
`UUCCUGCAUUCAGGAUGUGAGGCCAUUUAAUAAAAAGGGCACAAAGCCUGUCAGAGUUUUCAACGGUGCUUAUAGCUGCCAGCUGGAUUCCAAACAGGUACCACAUUGUC` — result for “RBNS enrichment (R)”: 0.208.
Under “RBNS enrichment (R)”, `AAACAACUCUGUAGAGCUCUCUGCACCCUGUACCCUUUUCACCUUUUGUAUUUAAUUUUAAAGUCAGUGUACUGCAAGGAGGCUGGAUGCAAGAUAGAUACUAUAUUAAA` is recorded as 0.281.

Sample 2
Target: PABPC1L2, full length, GST fusion (mouse, UniProt A0ABA7IW68)
Technique: RNAcompete
Form: RNA
Sample: in vitro
Tested at: 20 nM
Setting: 7-mer, probes averaged, single round
Relative to: mean of 7-mers
Direction: higher = stronger binding
Construct (chain): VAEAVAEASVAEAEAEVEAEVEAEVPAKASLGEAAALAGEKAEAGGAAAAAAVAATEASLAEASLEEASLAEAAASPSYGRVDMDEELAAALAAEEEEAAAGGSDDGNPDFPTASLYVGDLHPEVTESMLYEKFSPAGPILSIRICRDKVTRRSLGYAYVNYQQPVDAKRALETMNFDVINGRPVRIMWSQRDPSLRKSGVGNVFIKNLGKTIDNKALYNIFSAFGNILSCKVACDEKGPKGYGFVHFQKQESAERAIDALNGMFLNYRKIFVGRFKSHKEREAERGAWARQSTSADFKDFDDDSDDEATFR
The 7-mer Z-score of `AUGGCAC` is reported as -0.0844.
The 7-mer Z-score of `CCCCCAG` is reported as -0.374.
For `ACCAAAU`, the 7-mer Z-score was 0.412.
For `GGAAGCG`, the 7-mer Z-score was 0.144.
With `AAUCGGG` the 7-mer Z-score was 0.474.
The 7-mer Z-score of `CGCAGGU` is reported as -0.126.
`AUGGCCU` gave a 7-mer Z-score of -0.079.
With `GGUCCAU` the 7-mer Z-score was -0.2.

Sample 3
Target: ABI1, truncated, D143A, DHFR fusion (Arabidopsis thaliana)
Technique: DHFR PCA, deep sequencing
Sample: yeast
Setting: methotrexate growth selection, single substitutions
With: (+)-ABA 1.4 µM
Relative to: wild-type fitted maximum
Direction: higher = stronger binding
Starting sequence: PYL1, truncated, DHFR fusion (Arabidopsis thaliana); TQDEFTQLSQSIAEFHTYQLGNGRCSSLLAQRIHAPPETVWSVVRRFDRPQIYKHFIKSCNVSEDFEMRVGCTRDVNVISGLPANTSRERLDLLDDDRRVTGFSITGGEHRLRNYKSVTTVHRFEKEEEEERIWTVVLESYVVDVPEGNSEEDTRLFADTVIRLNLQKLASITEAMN
For `D153C`, “relative binding score” read -8.9%.
For `I33R`, “relative binding score” read 10.2%.
Under “relative binding score”, `V142C` is recorded as 53.2%.
Under “relative binding score”, `V121G` is recorded as 1.27%.
Under “relative binding score”, `F47S` is recorded as -2.37%.
For `W134S`, “relative binding score” read 73.7%.
`R90T` — result for “relative binding score”: 25.6%.
`W134T` — result for “relative binding score”: 75.1%.
Under “relative binding score”, `R46D` is recorded as -28.2%.
`I172N`: “relative binding score” -21%.

Sample 4
Molecule: PhoQ, residues 284 288 289 292 302 303 SSYNSA
Technique: Sort-seq
Refers to: YFP reporter
Sample: E. coli
Setting: PhoQ-PhoP variant library
With: 10 µM Mg2+
Relative to: high Mg2+ state
Direction: higher = stronger signaling
The fold induction was 1.48 (PhoP, residues 12 14 15 18 19 ICWRQ (Escherichia coli, UniProt P23836)).
It gave 15.8 for fold induction (PhoP, residues 12 14 15 18 19 VHTVL (Escherichia coli, UniProt P23836)).
The fold induction was 1.83 (PhoP, residues 12 14 15 18 19 TQCLL (Escherichia coli, UniProt P23836)).

Repeated from above (sample 3):
`R90T` — result for “relative binding score”: 25.6%.
Under “relative binding score”, `F47S` is recorded as -2.37%.
Under “relative binding score”, `V121G` is recorded as 1.27%.
Under “relative binding score”, `V142C` is recorded as 53.2%.
For `W134S`, “relative binding score” read 73.7%.
